Published values of several laboratories.
Parts stem from different laboratories: compare values within a part only. Changes are numbered by the printed parent chain.

Block 1
Target: CEBPE, bZIP domain (human)
Method: DHFR protein complementation
Matrix: yeast
Notes: single substitutions, most at no-binding floor
Relative to: wild-type JUN-FOS pair
Reading: higher = stronger binding
Measurement: binding fitness
Starting sequence: JUN, bZIP domain (human); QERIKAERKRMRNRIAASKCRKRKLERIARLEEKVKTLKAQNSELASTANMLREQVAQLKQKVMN; partner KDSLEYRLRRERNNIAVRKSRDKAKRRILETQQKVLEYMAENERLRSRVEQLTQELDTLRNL
R53L: -1.14 natural log
Q41C: -1.42 natural log
M51T: -0.982 natural log
V35A: -1.06 natural log
A29I: -1.16 natural log
E44V: -1.27 natural log
R53A: -0.668 natural log
A40L: -1.2 natural log
K34M: -1.1 natural log
R30V: -0.959 natural log
A46C: -1.24 natural log
K36V: -1.23 natural log
K34Q: -1.02 natural log
E32C: -1.4 natural log
V35Q: -1.41 natural log
V35H: -1.44 natural log
E54N: -1.26 natural log
L31D: -1.36 natural log
T48D: -1.39 natural log
E32S: -1.29 natural log
N42K: -1.26 natural log
K39C: -1.34 natural log
L52M: -1.42 natural log
N42L: -1.46 natural log
L31E: -1.3 natural log

Block 2
Target: RNA binding protein fox-1 homolog 2, RRM domain, GST-SBP tag (RBFOX2, Homo sapiens, UniProt O43251-10, residues 100-194)
Method: RNA Bind-n-Seq
Form: RNA
Matrix: in vitro
Tested at: 365 nM
Notes: natural RNA segment, single round, ends assumed
Relative to: no-protein control
Reading: higher = stronger binding
Measurement: RBNS enrichment (R)
Constant ends, left off below: GGGAGUUCUACAGUCCGACGAUC … UGGAAUUCUCGGGUGCCAA
Residues (chain): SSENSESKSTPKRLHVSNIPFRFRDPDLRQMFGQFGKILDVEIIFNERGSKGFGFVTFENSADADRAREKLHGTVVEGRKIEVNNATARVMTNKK
AGGCAAAGCACGGGUGAAGGUAGGCGCUAAAGGCUUUGGGCUAAAGCCAGCACGCGGUUCUGUGCUAUAGGAGUCUCCCGUUUCCCGUGGACAGGUUCAGCGUUCCUUCU: 0.511
CCUUUUGUUUCAAAAAAUGUAAUAUUUUCCCCCAAGCGUUUUAUAUUUAUGUAUUUUGUAUUCAAUGUGAGGCUUAUUAAAAAUAGUGAUUCUAAUGUAAGAAUCAGCUA: 0.671
ACAUAUUCUGGUGGCUCCCUGCUGGCCCUCUGCUCACACCUUGAAAGAGCCUUUUCAAAUACAGAUCCAGAAGUCUGAUUUGUGCCAACCUUAGGAUGACCUAAGGGGAG: 0.353
CCAUUUGUAUACAUUUGCCCAAACAUAGCAACUAUUGUACAGUUUUUCAUUGUAUCAAAUACUUUUUUAAAGACUACAAAUAAAGUCUAUUAGGACUGUGACCCAAUAGA: 0.44
AGUGAAGUCCAGAUAGUUUUGCAGAUUGUUUUGCUACUUUUUCAUAUGGUAUAUGUUUCUGAUUUUUAAUAUUUCUUUUGAGAAAUUCUGAGUUCUGAUGUAGGAGCUUU: 1.07
UGGCAGUUUUGACAUCAGCCAGCUGCCCUAAAUAACCCUUCAACGUUUCUUCACUUUUGCAAGGUUCCACAGAGUAAGACAUUGGGUCUAUUCCAGCUCAUUCAUUUUAU: 0.684
CUCUGUAGGACCAAGCACUCGGGGGAGAGGCCUAAGCCAUCCUCUGUUCCAGACUGGACAUCCACUGUCUUUCCUGCUUUCGCGUCAGAUUUACAGCUUAUGCUAGGCCC: 0.208
UCACUGUAACCUGAUUCAUCCUGGGAUGUAAACCAUUCGAAGUCAGCUAAUUGGACUUUUAUGGCUCUAUCUUUUCCUUCAGUGAAGAACCCUAUUUAAAACUGGGUCAU: 0.291
AAUAUUGUAAGAAUAACUCAUAUGGAAGUUCAAGCUAUUUUUAUACUAUAAUAGAGUUAUUUAAUUUUAAUUUGUUGAAUUAUUAGUUACCACUGUCAUUUCUUCAGCUA: 0.663
CUCCACCAGGACCAGGAUCCUGGGCCACAGGCUGGGAUGGUCCUUCCAAGAAAGGGUCAUUUCAGACGCAGCCCUGCUUGGGCUAUUCAAUCUUAGGGUGUCUAUCCACG: 0.246
CAAUGUCUUGAAGUUUUAAGUGUUUUGACCAGUGUGUAAUGUUAAAUUCAGAGGCUACAGUAUAUCUACAUUCAUGUGGUGUUCAUUGGUAAUUUCAGUAUAUGUAAUGU: 1.25
AGCAGUAUAGGACUGUUGAACAGCCUGGUGUGUCAGGACCCCCAAAUGUCACUUCUGCCUAAAGCAUGUAUGUCACCUAUUUUUUUCUUCAAUAAAGAAAUUUAACAGCC: 5.42

Block 3
Target: CCNB1, cyclin fold, Cln2 fusion (human)
Method: yeast growth competition, sequencing
Matrix: yeast
Notes: weak parent motif
Relative to: not given
Reading: higher = stronger binding
Measurement: normalised enrichment score
Starting sequence: WEE1 docking peptide (human); HKTFRKLRLFDTP
L9Y: 1.27
K2L: 0.375
F10L: 0.243
F10W: 0.746
H1C: 0.644
F10S: -0.0637
L9A: 1.18
P13E: 0.386
T12L: -0.0244
F10Y: -0.287
R5F: -0.209
R8T: 0.707
F10D: -0.0306
P13C: 0.8
R8C: 0.495
H1W: 1.21
T3D: -0.15
F10G: 0.108
D11G: -0.737
T3Y: -2.22
H1S: 1.85
D11A: 0.542
F4N: 0.797
P13F: 0.357
K6R: 0.333

Block 4
Target: Fragile X messenger ribonucleoprotein 1, C-terminal low-complexity region (Fmr1, Mus musculus, UniProt P35922)
Method: RNA Bind-n-Seq
Form: RNA
Matrix: in vitro
Tested at: 200 nM
Notes: whole 134-nt RNA, ends assumed
Added: 150 mM LiCl
Relative to: input library
Reading: higher = stronger binding
Measurement: log2 enrichment
Library: 7-deaza-guanosine replaces G
Constant ends, left off below: GGGAGUUCUACAGUCCGACGAUC … UGGAAUUCUCGGGUGUCAAGG
UUGACCUAGAGGAUGAGACCAUUGAUGCCGAGGUCAUGAACUCUCUAGCAGUUACUAUGGAUGACUUCCGGGUAAGGACCACACCCGUGC: -1.92
UGGCCCUGGUGGCAUGCGGGGAGGAAGAGGUGGCCUCAUGGAUCGUGGUGGUCCCGGUGGAGUGUUCAGAGGUGGCCGUGGUGGAGACAG: -0.0963
AAGUCCUGUGCUACACAUCGUAUGUACCGAAUCGGGAAAAAGGGUUUGGGUUUGGGAAAGUAUUAUGUUACGCCGUUCGGAUCUGCACUU: -1.98
UUCUGCACCUCUGCUACCUAAAGAAGACCCAAUCUUCACAUAUUUAUCUAAACGGUUAGGAAGGAGUAUAGAUGACAUAGGUCACCUCAU: 0.514
CUCAAGUCCUGUGCUACACAUCGUAUGUACCGAAUCGGGGCGGGGCGGGGCGGAAAGUAUUAUGUUACGCCGUUCGGAUCUGCACUUCCA: -1.04
CAAGUCCUGUGCUACACAUCGUAUGUACCGAAUCGUGUGUGUGUGUGUGUGUGUGAAAGUAUUAUGUUACGCCGUUCGGAUCUGCACUUC: -0.353
CAAGUCCUGUGCUACACAUCGUAUGUACCGAAUCGGGUUUGGGUUUGGGGUUUGGAAAGUAUUAUGUUACGCCGUUCGGAUCUGCACUUC: -1.5
UGGCAGGUGGAUUUUGUUUAUUUUUUUAGCUCAUUUCCAGGGGUGGGAAUUUUUUUUUAAUAUGUGUCAUGAAUAAAGUUGUUUUUGAAA: 0.402
CACAGACAACACGCACCCACACAGACACAGAGGGAAGGGGUUGGGAUGGGGACUGGGUGCACAGCAGGGCGGGGUAGGACCCCAGCCCCU: 0.183
ACCAUGCAGGUGGGCAUCUUUGGGAAGUGGGGCAAGGGGGGGAUAGGGAGGGGGGUAUCACUUUGGGAACAGGUGGUCCCAGGUCGUUUC: 1.47
UCAAGUCCUGUGCUACACAUCGUAUGUACCGAAUCGGGUUUGGGUGGGUUUGGGAAAGUAUUAUGUUACGCCGUUCGGAUCUGCACUUCC: -1.1

Block 5
Target: Sal-like protein 4, full length isoform A (SALL4, Homo sapiens, UniProt Q9UJQ4, residues 1-1053)
UniProt Q9UJQ4, sequence (whole entry, looked up): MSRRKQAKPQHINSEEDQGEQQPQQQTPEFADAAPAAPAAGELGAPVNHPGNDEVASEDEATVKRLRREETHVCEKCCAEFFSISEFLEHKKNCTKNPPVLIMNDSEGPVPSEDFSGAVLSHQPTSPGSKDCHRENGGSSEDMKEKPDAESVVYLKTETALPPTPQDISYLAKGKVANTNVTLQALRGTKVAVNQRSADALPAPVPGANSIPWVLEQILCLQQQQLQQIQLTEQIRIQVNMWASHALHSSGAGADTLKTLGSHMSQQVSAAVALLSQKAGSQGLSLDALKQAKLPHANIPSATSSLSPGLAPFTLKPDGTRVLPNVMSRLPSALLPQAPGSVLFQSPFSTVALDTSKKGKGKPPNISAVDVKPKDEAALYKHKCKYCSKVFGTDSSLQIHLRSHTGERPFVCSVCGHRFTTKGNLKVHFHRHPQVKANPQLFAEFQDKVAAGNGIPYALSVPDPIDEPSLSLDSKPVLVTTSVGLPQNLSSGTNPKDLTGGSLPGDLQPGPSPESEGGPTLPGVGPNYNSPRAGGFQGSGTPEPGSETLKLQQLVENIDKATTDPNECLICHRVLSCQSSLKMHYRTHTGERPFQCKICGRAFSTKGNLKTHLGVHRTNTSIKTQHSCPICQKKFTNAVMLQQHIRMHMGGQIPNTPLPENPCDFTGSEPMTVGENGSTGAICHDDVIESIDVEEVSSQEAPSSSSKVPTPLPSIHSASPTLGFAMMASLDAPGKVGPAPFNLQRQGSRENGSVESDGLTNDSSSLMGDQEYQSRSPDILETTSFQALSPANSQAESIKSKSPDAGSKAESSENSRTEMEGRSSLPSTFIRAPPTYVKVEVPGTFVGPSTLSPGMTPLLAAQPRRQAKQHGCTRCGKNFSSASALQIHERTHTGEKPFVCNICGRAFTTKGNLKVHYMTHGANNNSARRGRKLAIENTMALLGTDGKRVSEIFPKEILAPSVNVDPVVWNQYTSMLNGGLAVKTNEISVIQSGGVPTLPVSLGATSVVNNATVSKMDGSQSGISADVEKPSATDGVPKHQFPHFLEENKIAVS
Method: universal PBM
Form: double-stranded DNA, one strand shown
Matrix: in vitro
Tested at: 600 nM
Notes: 8-mer, flanks averaged, mean of replicates
Reading: higher = stronger binding
Measurement: E-score
AGTATAAA: 0.317
CGGTGTTC: -0.164
GGCCTGCA: -0.365
CGAGCATA: 0.0426
AGCGCTGC: -0.231
GACTCTCC: -0.104
GGGGTTAC: -0.321
ATGCTCGG: -0.141
GACGGTCA: -0.188
ACTACGCC: -0.179
CAGGGTAG: -0.292
ACTTGCGA: -0.00603
CTCCTAAC: 0.005
GAGTTGAA: 0.075
AGTCTCTG: -0.179
CGTTGGCA: -0.0485
CAACTCGG: -0.23

Other studies, line by line
PhoQ, residues 284 288 289 292 302 303 NLALSC
fold induction (PhoP, residues 12 14 15 18 19 SFCSL (Escherichia coli, UniProt P23836); Sort-seq, measured: YFP reporter; E. coli; PhoQ-PhoP variant library, added: 10 µM Mg2+; relative to: high Mg2+ state, higher = stronger signaling): 2.18

Excerpt of the above (block 1):
N42K: -1.26 natural log
V35H: -1.44 natural log
L31E: -1.3 natural log
N42L: -1.46 natural log
V35A: -1.06 natural log
R30V: -0.959 natural log
